Assay results from different studies.
Each numbered part is a random draw from the data of one study; scales do not carry over between parts.

Sample 1 — method: RNA Bind-n-Seq; molecule type: RNA; medium: in vitro; concentration: 365 nM; reference: no-protein control; reading: higher = stronger binding; endpoint: RBNS enrichment (R)
Target: RNA binding protein fox-1 homolog 2, RRM domain, GST-SBP tag (RBFOX2, Homo sapiens, UniProt O43251-10, residues 100-194)
Notes: natural RNA segment, single round, ends assumed
Shared flanks, not repeated: GGGAGUUCUACAGUCCGACGAUC … UGGAAUUCUCGGGUGCCAA
Residues (chain): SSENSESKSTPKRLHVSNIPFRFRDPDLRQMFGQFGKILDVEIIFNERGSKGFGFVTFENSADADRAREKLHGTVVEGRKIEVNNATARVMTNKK
UUGAAAGCAGUUGGAAACCAGCUAAUAGUUUCUUAAUCUCAGAUUUCGAGAUGAAUGUAAACUGUAUUCUUUUGAAAUGUGCAAGUGUUUGAUUCAUGCCAUUUGAUAAA: 0.642
GAGGUUGGGGGGCAGAGUCCCAGAGCAGCCCUUUACCCCAGGUCCAGGCCCUGGAAUCCUGAGACUCGCGUUUCCUUGGCCAGUGGUAACACAGGACGUGUGUGCGCAUG: 0.982
UAAGCUGCUCUUUUGGCCUGAACACAUUAGUGAUGACUUCUAUGGCAUGGAAUUUUACCCAUGAUUUCCUUACCACUAGGAUCUACAUUGAUAAAAAAAAUUGAUUAAAU: 0.596
ACACAAAAAAGUGUCUUACUUGAGAGUGAGUGUGUGUGUGUGCGUGUGCACGUGCACACAUGUGCACGUUUGUAUGUAUGGAAAUAAACUUAUAAAUGGGGACGUAUUGG: 0.901
AGCAGUUGGUAUUGUUAACUUUUUAUGAUCAUCAAAAGUACAUAAAAGUCCUAUUAAUCCCCUUACUCUGCUUCCCUUAGCUCUGGUAUACACCAAAAAGAAAUCUUUAC: 0.522
UGACUCCUUAUUUUUUAAAUGUUUCCACAUUUUUGCUUGUGGAAAGACUGUUUUCAUAUGUUAUACUCAGAUAAAGAUUUUAAAUGGUAUUACGUAUAAAUUAAUAUAAA: 0.774
UGUAAAUGCUGCCCUCUGCCGCCUUUGUUUUGAGAUGCAGUUUAAACUCCCUCUGGCUGCUGCUGCUGCUUUUUGGUGUCCCGACAUACCUACGCCCCCGUUUUAUGGGU: 0.334

Sample 2 — method: universal PBM; molecule type: double-stranded DNA, one strand shown; medium: in vitro; concentration: 600 nM; reading: higher = stronger binding; endpoint: E-score
Target: Sal-like protein 4, full length isoform A (SALL4, Homo sapiens, UniProt Q9UJQ4, residues 1-1053)
Chain of UniProt Q9UJQ4 (whole entry, looked up): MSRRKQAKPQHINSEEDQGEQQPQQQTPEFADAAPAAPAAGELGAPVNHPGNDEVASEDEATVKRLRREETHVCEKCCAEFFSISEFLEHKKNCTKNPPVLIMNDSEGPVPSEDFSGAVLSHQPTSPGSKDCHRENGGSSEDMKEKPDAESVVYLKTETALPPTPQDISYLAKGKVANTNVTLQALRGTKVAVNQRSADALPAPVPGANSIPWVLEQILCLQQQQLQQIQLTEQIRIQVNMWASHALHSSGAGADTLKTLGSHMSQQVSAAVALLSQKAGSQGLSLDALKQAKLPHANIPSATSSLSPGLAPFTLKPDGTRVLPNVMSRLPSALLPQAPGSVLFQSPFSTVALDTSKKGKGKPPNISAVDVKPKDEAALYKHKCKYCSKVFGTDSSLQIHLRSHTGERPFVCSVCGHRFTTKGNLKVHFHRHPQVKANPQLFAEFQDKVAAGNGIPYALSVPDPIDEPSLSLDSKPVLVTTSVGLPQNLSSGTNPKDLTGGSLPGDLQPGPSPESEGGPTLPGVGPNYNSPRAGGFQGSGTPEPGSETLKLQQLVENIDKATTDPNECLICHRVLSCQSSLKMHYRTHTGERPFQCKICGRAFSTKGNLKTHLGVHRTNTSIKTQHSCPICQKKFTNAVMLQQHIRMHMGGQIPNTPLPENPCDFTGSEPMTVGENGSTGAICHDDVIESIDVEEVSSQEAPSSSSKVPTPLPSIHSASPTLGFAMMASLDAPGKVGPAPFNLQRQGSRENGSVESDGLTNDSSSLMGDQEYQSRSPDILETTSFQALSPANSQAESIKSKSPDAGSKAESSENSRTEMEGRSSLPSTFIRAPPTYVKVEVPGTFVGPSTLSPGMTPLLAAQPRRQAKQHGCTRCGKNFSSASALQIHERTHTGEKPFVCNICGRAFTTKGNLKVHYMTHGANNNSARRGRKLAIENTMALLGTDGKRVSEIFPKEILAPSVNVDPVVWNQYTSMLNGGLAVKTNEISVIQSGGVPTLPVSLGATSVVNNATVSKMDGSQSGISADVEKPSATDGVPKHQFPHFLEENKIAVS
Notes: 8-mer, flanks averaged, mean of replicates
ACTTCAAG: 0.161
AGGAGCGA: -0.0458
ATTAGGTG: 0.0822
TCCTAAAA: 0.165
GTGCGAAA: 0.0517

Sample 3 — method: protein binding microarray; molecule type: double-stranded DNA, one strand shown; medium: in vitro; concentration: not given; reference: not given; reading: higher = stronger binding; endpoint: E-score
Target: Histone acetyltransferase KAT6A, winged helix 1, GST fusion (KAT6A, Homo sapiens, UniProt Q92794, residues 1-85)
Notes: 8-mer, flanks averaged, mean of 2 arrays, mostly near background
Target sequence (chain): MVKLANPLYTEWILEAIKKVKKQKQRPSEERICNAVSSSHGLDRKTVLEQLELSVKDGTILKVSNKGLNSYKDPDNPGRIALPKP
CATGGGCC: -0.0667
CCTGTGCA: 0.0327
GTGATCTA: -0.141
CACAGCCA: -0.0933
GCCATTAC: 0.128
AAAAGAGG: -0.175

Further values, each from its own experiment
PhoQ, residues 284 288 289 292 302 303 SSLVEF
fold induction (PhoP, residues 12 14 15 18 19 LYFRQ (Escherichia coli, UniProt P23836); Sort-seq, measured: YFP reporter; E. coli; PhoQ-PhoP variant library, added: 10 µM Mg2+; reference: high Mg2+ state, higher = stronger signaling): 17.2

Repeated from above (sample 2):
AGGAGCGA: -0.0458
ATTAGGTG: 0.0822
